# Published values of several laboratories.
# Lines come from different studies, so protocols differ.
# Cell line: NCI-H522
Structure (SMILES),assay,setting,how to read,quantity,value
Cc1ccc([N+](=O)[O-])cc1S(=O)(=O)N(C)/N=C/c1cnc2ccc(Br)cn12,cell growth or viability,,,IC50,> 10000 nM
CCCCCCCCCCCCCCCCCCOc1ccccc1CCOP(=O)([O-])OCC[N+](C)(C)C,"cell growth or viability, SRB",10 µM,,inhibition,42.5%
O=C(Nc1nnc2c1c(-c1ccc(Cl)cc1)nc1sc(=Cc3ccco3)c(=O)n12)c1ccccc1 (mixture of isomers),SRB,"10 µM, NCI60 single-dose screen",baseline: untreated,cell growth,13.2%
CNS(=O)(=O)Nc1nccc(Cc2c(C)c3ccc(Oc4ncccc4F)cc3oc2=O)c1F,cell viability,7 days,,IC50,> 1000 nM
CN(C)CCN1CCN(c2ccc3nc(-c4ccc5nc(-c6ccc(C(F)(F)F)cc6)[nH]c5c4)[nH]c3c2)CC1,SRB,"10 µM, 48 h",,growth percent,42.1%
C1=[N+]2CCCC[N+]3=Cc4ccc5[n]4[Au-]23[n]2c1ccc2-c1nc2ccccc2nc1-5.F[P-](F)(F)(F)(F)F,NCI60 five-dose screen,,,TGI,6.53 -log M
CC(C)c1ccc(N(C)c2ccc3c(c2)OCC[C@H]3CNc2cnccc2C(=O)O)cc1,"cell growth or viability, ATP luminescence",7 days,,IC50,17.4 nM
CCCC(CCC)C(=O)OCc1cn(-c2cc3ccccc3oc2=O)nn1,NCI60 single-dose screen,10 µM,,growth percentage,91.2%
Cc1ccc(C(=O)/C=C/c2ccccc2)s1,"cell growth or viability, SRB",10 µM,,inhibition,6.5%

# Some of these lines once more:
Structure (SMILES),assay,setting,how to read,quantity,value
Cc1ccc(C(=O)/C=C/c2ccccc2)s1,"cell growth or viability, SRB",10 µM,,inhibition,6.5%
